Assay results pooled from the literature.
Each numbered part is a random draw from the data of one study; scales do not carry over between parts. Changes are numbered by the printed parent chain.

Block 1
Target: CCNB3, cyclin fold, Cln2 fusion (human)
Method: yeast growth competition, sequencing
Sample: yeast
Notes: weak parent motif
Baseline: not given
Direction: higher = stronger binding
Starting sequence: RB1 docking peptide (human); PKPLKKLRFDIEG; partner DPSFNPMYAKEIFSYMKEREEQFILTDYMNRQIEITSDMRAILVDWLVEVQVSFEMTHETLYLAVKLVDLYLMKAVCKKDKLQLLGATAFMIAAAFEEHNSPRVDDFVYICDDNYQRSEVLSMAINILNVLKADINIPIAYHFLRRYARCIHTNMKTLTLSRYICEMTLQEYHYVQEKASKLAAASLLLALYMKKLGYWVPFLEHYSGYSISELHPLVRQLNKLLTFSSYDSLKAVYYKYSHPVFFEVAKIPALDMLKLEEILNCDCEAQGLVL
Change	normalised enrichment score
K5R	-0.0602
D10N	0.427
P1A	0.504
D10C	-0.105
P1H	0.0997
E12Q	0.111
K6I	0.476
G13S	0.283

Block 2
Target: RING finger protein unkempt homolog, zinc fingers 1-6, SBP tag (UNK, Homo sapiens, UniProt Q9C0B0, residues 30-357)
Chain of UniProt Q9C0B0 (30-357, looked up): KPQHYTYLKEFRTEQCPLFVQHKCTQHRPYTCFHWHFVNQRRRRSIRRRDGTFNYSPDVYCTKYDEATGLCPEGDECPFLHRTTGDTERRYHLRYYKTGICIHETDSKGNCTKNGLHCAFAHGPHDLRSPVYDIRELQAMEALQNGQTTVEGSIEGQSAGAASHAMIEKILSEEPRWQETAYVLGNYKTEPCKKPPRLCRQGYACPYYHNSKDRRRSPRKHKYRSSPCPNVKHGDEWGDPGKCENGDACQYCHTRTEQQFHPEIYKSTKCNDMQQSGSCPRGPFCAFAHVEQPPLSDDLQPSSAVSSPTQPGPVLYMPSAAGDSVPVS
Method: RNA Bind-n-Seq
Molecule type: RNA
Sample: in vitro
Concentration: 100 nM
Notes: RNA with constant flanks, vertebrate orthologous sites, ends assumed
Baseline: input RNA pool
Direction: higher = stronger binding
Sequence	bound/input enrichment
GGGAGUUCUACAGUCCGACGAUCGGUUAAUGUGUUAUUUAUUGAGUAUUGUUUGUGCUAAGCAUUGUGUUAGAUUUAAAAAAUUAGUGGAUUGACUCCACUUUGUUGUGUUGUUUUCAUUGUUGAAAAUAAAUAUAACUUUGUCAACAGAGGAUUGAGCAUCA	0.931 ratio
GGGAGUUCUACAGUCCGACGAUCCUACCAUUGUAACCUGCUGUAUAAUAACCUUAGGCAUUUAUCAAUUGUUGAUACAAAUGUUAGUCCUUAACCACUUUUUAUAUGUUUUAAAUUUUGAAAUUCAAGUGUACCUGCCAUAACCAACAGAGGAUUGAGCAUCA	2.45 ratio
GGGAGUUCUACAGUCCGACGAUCGUGAGGGUCUACUGACCACUCGCUGUUACGUCUGGUAUCUGUAAACGCUCUUUUUGUUCUUAGUCUUUUUCUUGUAUAAUUGAUACUCUUUAAAAUCGUUAAUGUAUAACAGGGCUUAUGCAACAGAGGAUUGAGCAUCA	3.4 ratio
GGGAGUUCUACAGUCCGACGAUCCCCUCUUAACCCCAUAUCUUCUGUUUCAUAGUGCAGAAGUAUUCUUUUCAAUUACAUUAUUAGUGGACUUGUUUUAAUUUUAGAGAAACUUUCAGUACAGAUACUGUGAGCUUACAUGGACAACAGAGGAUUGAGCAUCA	3.61 ratio
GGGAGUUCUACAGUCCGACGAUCUGUGUUGGUGCAGAGUGCUCUGUGCCAGUGCUCAUCAUCCCUUCUUCACACCACUGUCCCUAGUUAUAGGAAUUUAAUAUUUUUAAAAGUUUUACAUUGCUGUAUAUUCAAAGAUUUGUUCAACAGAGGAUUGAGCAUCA	0.962 ratio
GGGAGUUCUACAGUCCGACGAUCGGUAGAUUUUGUAAAACAGGAGCCCCAUAGGCUGUUUGAGCUUUGCUUUUUAUAUUUAAAUAGGAUACUUUUAUAUGAUGGGUGCUUUGAGUGUGACUGCAGCGGACUCAUUUCAGAGGUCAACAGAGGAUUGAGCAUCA	1.29 ratio
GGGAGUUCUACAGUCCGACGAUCAAUGGCUUUUGCUUCAUGAAGAAGAGUAAAAAACAGUCCCCUCAGUUAAAAAUGCCUAAAUAGCUAUUUUAAAAAUCAGGAUGUUUAAAUUUUGUAAAUCACCUGAUGUCACUACACACCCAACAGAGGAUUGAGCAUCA	0.692 ratio

Block 3
Target: ABI1, truncated, D143A, DHFR fusion (Arabidopsis thaliana)
Method: DHFR PCA, deep sequencing
Sample: yeast
Notes: methotrexate growth selection, single substitutions
Together with: (+)-ABA 0.032 µM
Baseline: wild-type fitted maximum
Direction: higher = stronger binding
Starting sequence: PYL1, truncated, DHFR fusion (Arabidopsis thaliana); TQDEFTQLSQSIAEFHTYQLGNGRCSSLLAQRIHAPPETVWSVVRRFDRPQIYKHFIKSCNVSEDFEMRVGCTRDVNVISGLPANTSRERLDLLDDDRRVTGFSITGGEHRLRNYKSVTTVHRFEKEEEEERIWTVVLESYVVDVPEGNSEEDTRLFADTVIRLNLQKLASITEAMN; partner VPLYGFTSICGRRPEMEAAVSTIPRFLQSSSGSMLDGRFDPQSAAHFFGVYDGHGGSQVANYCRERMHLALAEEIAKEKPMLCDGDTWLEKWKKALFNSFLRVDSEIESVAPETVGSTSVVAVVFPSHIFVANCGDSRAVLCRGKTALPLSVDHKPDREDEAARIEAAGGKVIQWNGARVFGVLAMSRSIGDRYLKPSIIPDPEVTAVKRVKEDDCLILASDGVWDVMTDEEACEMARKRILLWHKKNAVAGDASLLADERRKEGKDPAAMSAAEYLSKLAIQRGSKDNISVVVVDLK
Change	relative binding score
F66H	7.71%
R90K	-1.06%
P83K	14.2%
V118H	12.7%
G102R	0.336%
D48H	-14.8%
V43R	0.602%
H34S	16.4%

Further values, each from its own experiment
Molecule	target	test	test system	setting	how to read	endpoint	value
PhoQ, residues 284 288 289 292 302 303 GANMMA	PhoP, residues 12 14 15 18 19 STWGI (Escherichia coli, UniProt P23836)	Sort-seq, item: YFP reporter	E. coli	PhoQ-PhoP variant library, together with: 10 µM Mg2+	baseline: high Mg2+ state, higher = stronger signaling	fold induction	0.615

For quick reference, copied from above (block 3):
Change	relative binding score
V43R	0.602%
R90K	-1.06%
